Results pooled from the literature.
Each numbered part is a random draw from the data of one study; scales do not carry over between parts.

Sample 1
Target: Histone acetyltransferase KAT6A, both winged helices, GST fusion (KAT6A, Homo sapiens, UniProt Q92794, residues 1-181)
Technique: protein binding microarray
Molecule type: double-stranded DNA, one strand shown
Sample: in vitro
Concentration: not given
Setting: 8-mer, flanks averaged, mean of 2 arrays, mostly near background
Baseline: not given
Direction: higher = stronger binding
Construct (chain): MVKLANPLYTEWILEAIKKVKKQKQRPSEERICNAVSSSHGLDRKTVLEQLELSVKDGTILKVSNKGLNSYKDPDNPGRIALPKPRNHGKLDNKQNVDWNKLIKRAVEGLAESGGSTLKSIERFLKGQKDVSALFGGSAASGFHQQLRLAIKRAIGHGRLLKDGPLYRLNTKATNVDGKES
Strand	E-score
ATAGTCTC	-0.00983
AAACTCAT	-0.0717
GAAAGGTC	0.0376
AGAGCTCT	-0.0764
CGAACGAC	-0.0165
TGCGACAA	0.00417
CCTTCTCG	-0.099
GCACTCAC	-0.0118
ATATATGA	-0.0962
GAAGTACA	-0.1
CGCATTTC	0.144
CTCTAATC	-0.0487
ACCAGTTA	-0.232
ATATGCCC	-0.224
AAATACCG	0.0873
GTTTCTAA	0.119
AGGTGTTA	-0.239
CGTCCGAC	0.244
GTGGCGAA	0.0264
ACTAATAG	-0.218

Sample 2
Target: Hepatocyte nuclear factor 3-beta, forkhead domain (FOXA2, Homo sapiens, UniProt Q9Y261, residues 142-269)
Technique: protein-binding microarray
Molecule type: double-stranded DNA, one strand shown
Sample: in vitro
Concentration: not given
Setting: k-mer, scored over probes, only values ≥0.25
Direction: higher = stronger binding
Residues (chain): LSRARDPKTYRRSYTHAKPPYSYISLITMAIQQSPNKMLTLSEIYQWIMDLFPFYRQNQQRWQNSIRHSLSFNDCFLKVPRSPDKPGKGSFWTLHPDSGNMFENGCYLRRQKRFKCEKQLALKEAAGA
Strand	E-score
TGTCTAAA	0.279
ATACACAG	0.255
GACTATAA	0.261
ATCACATA	0.362
AACACACA	0.352
TTACCAAA	0.285
TAATCCAA	0.3
ACAAACAT	0.342
GCAAACAC	0.287
GTATGTCA	0.309
GATAAATA	0.313
AAGAGTAA	0.261
TACCACGA	0.28
GTATTCCA	0.261
ATATCACC	0.291
CAATGCAA	0.26
TATTGACA	0.424
CAGTAATG	0.258
ACATTATC	0.295
ATGATAAT	0.282
ACATATGG	0.335
GTGATATA	0.266
ATATAGTC	0.322
TAACTAGA	0.31
ACCACAAC	0.251

Sample 3
Target: Interferon regulatory factor 7, full length, phosphomimetic (IRF7, Homo sapiens, UniProt Q92985, residues 1-503, S471D/S472D/S475D/S476D/S477D/S483D/S484D/S487D)
Sequence of UniProt Q92985 (whole entry, unmodified, looked up): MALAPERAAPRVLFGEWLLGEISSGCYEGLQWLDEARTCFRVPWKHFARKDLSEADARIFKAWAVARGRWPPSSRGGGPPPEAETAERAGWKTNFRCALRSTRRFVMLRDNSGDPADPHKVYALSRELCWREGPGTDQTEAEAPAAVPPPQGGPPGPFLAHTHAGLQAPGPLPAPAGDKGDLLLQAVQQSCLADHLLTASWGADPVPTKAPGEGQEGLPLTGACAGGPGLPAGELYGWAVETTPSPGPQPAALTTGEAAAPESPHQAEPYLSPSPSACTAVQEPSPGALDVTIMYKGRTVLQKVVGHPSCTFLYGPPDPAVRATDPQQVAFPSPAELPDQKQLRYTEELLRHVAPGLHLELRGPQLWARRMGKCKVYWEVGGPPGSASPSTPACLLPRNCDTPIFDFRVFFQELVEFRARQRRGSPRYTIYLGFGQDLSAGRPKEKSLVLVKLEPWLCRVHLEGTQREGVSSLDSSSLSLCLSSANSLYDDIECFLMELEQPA
Technique: protein-binding microarray
Molecule type: double-stranded DNA, one strand shown
Sample: in vitro
Concentration: 2200 nM top
Setting: 60-bp whole probe
With: salmon DNA 0.4 mg/ml
Baseline: random background probes
Direction: higher = stronger binding
All sequences stand within: GCCTAGCAC … GTCTTGATTCGCTTGACGCTGCTG
Strand	fitted relative affinity [z-score]
GACGGATTCCTTTCCCTGACGTGCTAG	2.02
GACGGTATCCTTCTCCTGAGGTGCTAG	0.559
GACGGCCTGCTTATCCTGACGTGCTAG	0.399
GACGGACTAGGTATCGGGACGTGCTAG	-0.575
AAGTAAAATGCAAAGAGGAAGTGCTAG	-0.951
GACGGTATCTGGTTTCGGGACGTGCTA	2.94
TCATCATTGCCTATTTTTCAGTGCTAG	1.69
GACGGTATCGGGATTCGGGACGTGCTA	0.148
TTAGGTATCGACACGGGGTTAGTGCTA	-0.0862
ATGGAAATCTCAATGGGTTAGTGCTAG	-0.138
TTAGATTTCGGGACTGGTTTAGTGCTA	1.12
TCAAAAATGGAAACTCGTACTGTGCTA	-0.423
GATTCTCCTGCCTCAGCCTCGTGCTAG	1.11
TTAGATCTCAGTTTAGATTAGTGCTAG	0.292
GACGGACTGGGGTATCGGGAAGTGCTA	-0.882
TTAGGTCTCGGTTTCGGTGAGTGCTAG	3.21

Sample 4
Target: Ras GTPase-activating protein-binding protein 1, full length (G3BP1, Homo sapiens, UniProt Q13283)
Sequence of UniProt Q13283 (whole entry, looked up): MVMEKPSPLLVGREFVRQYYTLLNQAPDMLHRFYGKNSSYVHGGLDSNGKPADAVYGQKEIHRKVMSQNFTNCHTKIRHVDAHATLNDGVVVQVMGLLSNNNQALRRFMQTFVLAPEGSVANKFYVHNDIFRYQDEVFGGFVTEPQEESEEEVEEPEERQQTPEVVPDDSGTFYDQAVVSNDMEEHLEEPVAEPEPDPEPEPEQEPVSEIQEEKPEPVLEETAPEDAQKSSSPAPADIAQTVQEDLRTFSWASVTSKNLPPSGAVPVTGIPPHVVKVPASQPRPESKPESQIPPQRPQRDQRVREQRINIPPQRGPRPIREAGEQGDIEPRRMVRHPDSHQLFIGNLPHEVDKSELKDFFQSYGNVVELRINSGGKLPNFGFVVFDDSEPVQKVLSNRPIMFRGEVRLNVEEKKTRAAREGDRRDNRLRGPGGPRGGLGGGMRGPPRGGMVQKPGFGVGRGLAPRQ
Technique: RNA Bind-n-Seq
Molecule type: RNA
Sample: in vitro
Concentration: 200 nM
Setting: whole 134-nt RNA, ends assumed
With: 150 mM KCl
Baseline: input library
Direction: higher = stronger binding
All sequences stand within: GGGAGUUCUACAGUCCGACGAUC … UGGAAUUCUCGGGUGUCAAGG
Strand	log2 enrichment
ACCAUGCAGGUGGGCAUCUUUAGGAAGUGGGGCAAGGGGGGGAUAGGGAGGGGGGUAACACUUUGGGAACAGGUGGUCCCAGGUCGUUUC	1.21
CCUCAAGUCCUGUGCUACACAUCGUAUGUACCGAAUCGGUGGGGUGGGUGGGGAAAGUAUUAUGUUACGCCGUUCGGAUCUGCACUUCCA	1.27
UGGGAGGUGGAUUUUGUUUAUUUUUUUAGCUCAUUUCCAGGGGUGGGAAUUUUUUUUUAAUAUGUGUCAUGAAUAAAGUUGUUAUUGAAA	0.0968
UCCUGUGCUACACAUCGUAUGUACCGAAUCGGGCCCCCCGGCCCCCCGGCCCCCCGGGGAAAGUAUUAUGUUACGCCGUUCGGAUCUGCA	-0.133
UGGCCCUGGUGGCAUGCGGGGAGGAAGAGGUGGCCUCAUGGAUCGUGGUGGUCCCGGUGGAAUGUUUAGAGGUGGCCGUGGUGGAGACAG	0.451
CCUGUGCUACACAUCGUAUGUACCGAAUCGGGGUUUGGGGUUUUUUUGGGGAAAAAGGGGAAAGUAUUAUGUUACGCCGUUCGGAUCUGC	0.22
CACAGACAACACGCACCCACACAGACACAGAGGGAAGGGGUUGGGAUGGGGACGGGGUGCACAGCAGGGCGGGGUAGGACCCCAGCCCCU	1.88
GCAGGAAGUAAAAACAAAUGGAAAUGCUUCGGAUACUGGCAGGGGUGGGGGUUGCUAAGGAAAGGGUGGGAUGGGAGUGGGUAAAGAGUU	0.939
ACAGAGGGUUUGGUGGACGUUAUUCUCUAUCAUCAACCCGAUGACAAAAAGAAGAAUCGGGGGUUCUGCUUCCUUGAAUAUGAGGAUCAC	-1.29
CCUGUGCUACACAUCGUAUGUACCGAAUCGGGGUUUGGGGUUUUUUUGGGGUUUUUGGGGAAAGUAUUAUGUUACGCCGUUCGGAUCUGC	0.318

Sample 5
Target: Sal-like protein 4, full length isoform A (SALL4, Homo sapiens, UniProt Q9UJQ4, residues 1-1053)
Sequence of UniProt Q9UJQ4 (whole entry, looked up): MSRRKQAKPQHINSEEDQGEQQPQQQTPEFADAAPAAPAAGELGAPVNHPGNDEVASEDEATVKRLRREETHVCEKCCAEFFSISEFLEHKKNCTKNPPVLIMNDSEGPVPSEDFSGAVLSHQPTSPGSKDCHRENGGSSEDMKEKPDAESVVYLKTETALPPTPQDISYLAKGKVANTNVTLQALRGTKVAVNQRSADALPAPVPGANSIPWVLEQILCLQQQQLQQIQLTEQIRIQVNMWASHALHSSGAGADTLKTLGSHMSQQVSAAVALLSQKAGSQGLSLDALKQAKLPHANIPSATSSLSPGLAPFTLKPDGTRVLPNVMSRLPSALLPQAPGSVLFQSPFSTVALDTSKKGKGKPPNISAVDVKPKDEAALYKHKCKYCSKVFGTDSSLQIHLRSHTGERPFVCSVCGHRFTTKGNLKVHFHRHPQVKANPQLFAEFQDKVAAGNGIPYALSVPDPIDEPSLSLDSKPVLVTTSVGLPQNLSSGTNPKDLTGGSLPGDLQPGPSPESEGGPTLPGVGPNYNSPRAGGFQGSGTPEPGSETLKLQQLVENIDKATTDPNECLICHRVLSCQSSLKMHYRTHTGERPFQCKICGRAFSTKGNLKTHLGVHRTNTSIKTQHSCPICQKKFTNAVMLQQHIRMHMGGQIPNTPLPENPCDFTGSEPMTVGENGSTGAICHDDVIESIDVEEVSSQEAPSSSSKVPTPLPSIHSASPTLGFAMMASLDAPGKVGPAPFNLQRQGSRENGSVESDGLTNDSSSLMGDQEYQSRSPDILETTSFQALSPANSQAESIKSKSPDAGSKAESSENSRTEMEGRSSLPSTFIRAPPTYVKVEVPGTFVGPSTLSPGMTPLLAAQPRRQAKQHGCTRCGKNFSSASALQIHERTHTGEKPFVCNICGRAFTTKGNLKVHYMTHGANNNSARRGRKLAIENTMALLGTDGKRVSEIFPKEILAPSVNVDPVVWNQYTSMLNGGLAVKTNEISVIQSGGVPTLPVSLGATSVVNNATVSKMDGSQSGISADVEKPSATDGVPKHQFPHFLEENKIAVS
Technique: universal PBM
Molecule type: double-stranded DNA, one strand shown
Sample: in vitro
Concentration: 600 nM
Setting: 8-mer, flanks averaged, mean of replicates
Direction: higher = stronger binding
Strand	E-score
CTACCAAA	0.0866
AGCCCTAG	-0.118
ACGCGATG	-0.11
ACACGCAA	0.0183
AAGGCTAC	-0.00518
TACGGAGA	-0.00778
GTTGCTAA	0.143
GAGCCAAC	-0.163
CCGGAGTA	-0.19
ATGCCTGA	0.0416
CAGCCTAG	-0.125
CATGAGTA	0.0579
GTCCTGCA	-0.107
ACGTTGGG	-0.21
AATAAAAT	0.436
AGGGTACA	0.0823
GGGTCCTA	-0.171
AATTTTGG	0.268
TATGGCGA	-0.043
ATTTCCTG	0.213
GCTTTTTA	0.204
GTCGTGCA	-0.0858
ATGAGTGC	0.152
AGCTCACA	0.0208
ACGTTAAT	0.217

Repeated from above (sample 1):
Strand	E-score
AAACTCAT	-0.0717
GAAAGGTC	0.0376
ATAGTCTC	-0.00983
CCTTCTCG	-0.099
ACTAATAG	-0.218
GCACTCAC	-0.0118
ATATATGA	-0.0962
